Published values collected from several papers.
A part holds a random share of what one study measured. Changes are numbered by the printed parent chain.

Series 1 — technique: protein binding microarray; form: double-stranded DNA, one strand shown; sample: in vitro; concentration: not given; reference: not given; reading: higher = stronger binding
Target: Histone acetyltransferase KAT6A, both winged helices, GST fusion (KAT6A, Homo sapiens, UniProt Q92794, residues 1-181)
Setting: 8-mer, flanks averaged, mean of 2 arrays, mostly near background
Residues (chain): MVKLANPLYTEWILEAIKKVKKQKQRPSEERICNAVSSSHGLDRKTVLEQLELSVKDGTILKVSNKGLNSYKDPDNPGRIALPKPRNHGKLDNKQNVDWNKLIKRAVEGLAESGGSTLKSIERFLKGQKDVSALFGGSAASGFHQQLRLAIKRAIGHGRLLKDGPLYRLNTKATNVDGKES
| Strand | E-score |
| --- | --- |
| AGAAGGTG | -0.23 |
| CTTGTCCC | 0.153 |
| CGAGCGGC | 0.277 |
| CCGTGTGC | 0.192 |
| AACACACG | 0.0973 |
| GCAATACC | 0.0414 |
| GATTGGCC | -0.0183 |
| CGCAGCAC | 0.139 |
| ACACATGG | -0.095 |
| TAGTACCA | -0.124 |
| CAAACTCA | -0.0693 |
| ATTCAAAG | -0.0518 |
| CCGCACCC | 0.17 |
| TCCCGACA | 0.0777 |
| CGCGTGAG | 0.254 |
| CATTTGAC | -0.0991 |
| GGAGAGAA | -0.144 |
| ACACCCAA | -0.0906 |
| GACGGTTA | 0.122 |
| ACAGTTGC | -0.136 |
| ACTACTAA | -0.0605 |
| TGAGCGCA | 0.111 |
| AACCGACT | 0.0896 |
| ACGGTCAC | 0.1 |

Series 2 — target: CCND1, cyclin fold, Cln2 fusion (human); technique: yeast growth competition, sequencing; sample: yeast; setting: strong parent motif; reference: not given; reading: higher = stronger binding
Parent: RBL1 docking peptide (human); GSAKRRLFGEDPP
| Change | normalised enrichment score |
| --- | --- |
| QSAKRRLFGEDPP [G1Q] | 1.91 |
| GSAKRRMFGEDPP [L7M] | 0.508 |
| GSACRRLFGEDPP [K4C] | 2.61 |
| GSAKRRKFGEDPP [L7K] | 1.46 |
| GSAKRRLIGEDPP [F8I] | 0.459 |
| GSNKRRLFGEDPP [A3N] | 0.0525 |
| GSAKRRLWGEDPP [F8W] | 0.351 |
| GSQKRRLFGEDPP [A3Q] | 0.185 |
| GSAKRRLFGEDPC [P13C] | 1.46 |
| GSAKRRIFGEDPP [L7I] | 1.78 |
| GSAKRRLFGEDPY [P13Y] | 1.11 |
| GSAKERLFGEDPP [R5E] | 0.667 |
| GEAKRRLFGEDPP [S2E] | 0.912 |
| GSAKRRVFGEDPP [L7V] | 1.03 |
| GSSKRRLFGEDPP [A3S] | 1.08 |
| GSALRRLFGEDPP [K4L] | -0.333 |
| GSGKRRLFGEDPP [A3G] | 0.197 |
| GSAGRRLFGEDPP [K4G] | 0.226 |
| GSAKRRLFGNDPP [E10N] | 1.21 |
| GSAKRRQFGEDPP [L7Q] | 0.795 |
| FSAKRRLFGEDPP [G1F] | 2.78 |
| GSAKRRLFAEDPP [G9A] | 3.83 |
| GSAKRRLFGADPP [E10A] | 0.964 |
| GSAKARLFGEDPP [R5A] | 0.512 |
| GSAKRRLFGEDPQ [P13Q] | 1.3 |

Series 3 — technique: DHFR PCA, deep sequencing; sample: yeast; with: (+)-ABA 0.0091 µM; reference: wild-type fitted maximum; reading: higher = stronger binding
Target: ABI1, truncated, D143A, DHFR fusion (Arabidopsis thaliana)
Setting: methotrexate growth selection, single substitutions
Parent: PYL1, truncated, DHFR fusion (Arabidopsis thaliana); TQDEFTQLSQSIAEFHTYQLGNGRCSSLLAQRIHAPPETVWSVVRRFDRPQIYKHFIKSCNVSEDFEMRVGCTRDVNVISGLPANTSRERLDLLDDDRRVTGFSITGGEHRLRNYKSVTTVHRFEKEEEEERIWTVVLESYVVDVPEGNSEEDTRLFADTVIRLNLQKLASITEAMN; partner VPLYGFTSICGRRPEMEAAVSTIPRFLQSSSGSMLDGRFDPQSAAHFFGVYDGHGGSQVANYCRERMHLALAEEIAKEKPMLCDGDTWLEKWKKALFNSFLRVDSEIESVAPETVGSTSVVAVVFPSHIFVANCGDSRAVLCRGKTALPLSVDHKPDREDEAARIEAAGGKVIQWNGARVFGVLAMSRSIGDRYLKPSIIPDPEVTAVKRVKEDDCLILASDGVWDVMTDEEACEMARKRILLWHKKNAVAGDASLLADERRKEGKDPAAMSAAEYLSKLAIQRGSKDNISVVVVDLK
| Change | relative binding score [%] |
| --- | --- |
| N165W | -0.386 |
| R45C | -2.54 |
| T119W | -4.56 |
| D153S | -1.98 |
| D75W | 18.7 |
| E64L | 6.4 |
| T135E | -4.54 |
| E129T | 24.3 |
| R99F | 68.9 |
| I52R | 6.62 |
| E14F | 2.51 |
| G102S | 0.63 |
| N85P | -0.302 |
| K58T | 3.9 |
| G23Y | 0.568 |
| V78R | 33.6 |
| L166C | -4.19 |
| D75Q | 18.6 |
| T135A | 0.968 |
| A30V | 10.6 |
| A30N | 2.97 |
| S27H | 1.21 |
| T160F | 55.3 |
| N149R | 11 |
| A175N | 26.3 |

Series 4 — technique: RNA Bind-n-Seq; form: RNA; sample: in vitro; concentration: 365 nM; reference: no-protein control; reading: higher = stronger binding
Target: RNA binding protein fox-1 homolog 2, RRM domain, GST-SBP tag (RBFOX2, Homo sapiens, UniProt O43251-10, residues 100-194)
Setting: natural RNA segment, single round, ends assumed
All sequences stand within: GGGAGUUCUACAGUCCGACGAUC … UGGAAUUCUCGGGUGCCAA
Construct (chain): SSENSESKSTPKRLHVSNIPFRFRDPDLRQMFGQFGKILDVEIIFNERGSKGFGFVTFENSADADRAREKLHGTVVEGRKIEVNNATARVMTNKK
| Strand | RBNS enrichment (R) |
| --- | --- |
| GUCUGUAAAUUUGCAAAUUUUUCCUUUUAUAUGUGUGUUAGAAAAAUAAAGUGUUAUUGUUCCAAAAGCAUGAUGCUGUGUUCCAUUCAUUAUGAAGGGACAGACCUGGG | 1.53 |
| CACAGCCCAGUGGGUCCUUGUUCAGUUCUUGUCCAGGCCUUUGGGUGAGGGACACUGGUAGGGAUCAAGGCUCAUGGGCUCUGAGCCAAAGAAGGAGGCAUGGUGCAGAC | 0.978 |
| CAAGCCCAAAGUGUCUUUUCAGGAGGGCCAGUAGCCCCCAGGCUGCUGCCCACAUUAGCACAGUUUUCCCAGGGCCUCCCUGACUGCACCAGUAGGGUCUGGACCCCAGC | 0.397 |
| GCUUUUAUCCUGCAUGGGAUAACAUCUUUGUAAAUGUAUAAGCUUGGAAACCACCCAACAAAUAUUAGUAGCUGGAUAGCUACCUAUUUGUUGUUGAAUCCGGGUAUCCA | 0.434 |
| AUGAUAAAAUUCCACAAAAUGGAAAUAAAACUCAAAUUUCUUUAGCAUUGUGUAAAUAAAUCUGAAUGUGUUUAACUUUGUACUGGUAAUUUUCUGUAUAUUUGGAAUAU | 0.623 |
| UGGUGACCUCCCCCACCAUCUUGUCUCACUUGGAAACCGUUGUCAGUUUAUUUACUAUGCAAUAGACAUUCAUUGUUUUGUAUCCAGCUAGCUUUGGUUUAAUAUGCCAC | 0.377 |
| GCUGAGCUGGGAAAGAAGAGAGCAGGUUUUGCCUGGCUGUGGUUCCCUGCCCAAGGUGCUGACCCAAUCGCUGCCAAAAGAGAGUCAAUCAGAAUAUCCAAGUCCUGUAU | 0.578 |
| UUGCGUUUGAGCUCUCCAGGAUUUUACAUUUUUGGGUAACCUCAGUGAUUCCCAUUGGUGUAGGAAAUGAGACCCUCUCUGAAGCUGAGGAGAGCACGUUGAUCUGAACU | 0.544 |
| GGAGCUCACUGUGGGAUGGGGUUGACCUCUGCCGCCUGCCUGGGUAUCUGGGCCUGGCCAUGGCUGUGUUCUUCAUGUGUUGAUUUUAUUUGACCCCUGGAGUGGUGGGU | 0.658 |
| GAAUGGGACCUCCUGCCAUUCAGUGAGCACUAGGACAGCUGGGACCUCCUGCCAUUCAGUGAGCACUAGGACAGCUGGGACCUCCUGCCAUUCAGUGAGCACUAGGACAG | 0.354 |
| GCAGUUUAGUGCAUCUUUGCCUCUCGGUUGAAACCUGUAUAACCCUGUUACAAAGCUGUGUUGUUGCUUCUUGUGAAGGCCAUGAUAUUUUGUUUUUCCCCAAUUAAUUG | 0.536 |
| UCAUUCAGAGGACUCAAGUACUAGUGCUAGGUCUCUUUCCUUCCACUCUCUCUCUCUCUCUCUCUCUCUCUCUCUCUCUCUCUCUCUCUCCUAAGUACUUAUUCAUGCCU | 0.796 |

Series 5 — technique: RNA Bind-n-Seq; form: RNA; sample: in vitro; concentration: not given; reference: input RNA pool; reading: higher = stronger binding
Target: RING finger protein unkempt homolog, zinc fingers 1-6, GST-SBP tag (UNK, Homo sapiens, UniProt Q9C0B0, residues 30-357)
Chain of UniProt Q9C0B0 (30-357, looked up): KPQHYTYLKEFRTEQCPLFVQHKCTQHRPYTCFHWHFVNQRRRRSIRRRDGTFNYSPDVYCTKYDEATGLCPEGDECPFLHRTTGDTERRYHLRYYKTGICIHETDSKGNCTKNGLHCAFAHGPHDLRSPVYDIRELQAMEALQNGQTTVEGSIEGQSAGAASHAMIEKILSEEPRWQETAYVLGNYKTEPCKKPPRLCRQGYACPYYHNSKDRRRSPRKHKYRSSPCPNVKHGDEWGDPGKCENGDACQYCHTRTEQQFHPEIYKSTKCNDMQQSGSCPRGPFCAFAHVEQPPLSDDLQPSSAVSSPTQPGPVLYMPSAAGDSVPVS
Setting: RNA with constant flanks, human-mouse chimeric sites, ends assumed
All sequences stand within: GGGAGUUCUACAGUCCGACGAUC … CAACAGAGGAUUGAGCAUCA
| Strand | bound/input enrichment |
| --- | --- |
| GUAGCUGGGACUACAGAAAUGCUGGUAAUUUCAGUCACUUGCUGAUGACUUCUGAUGUCCCAGCAAAUGUUGGCAUUCACUGCAAUAGAGAAGAUACUUCUGAGGACAUACAGCAGUGGU | 0.333 ratio |
| UUACCCGAGAACGAGGAUGAGCUGGAGAGCACCAACAGGCGCUACACCAAGAGAGACUGCAGCACUUUCCUCAGAACUAGCGAGACGGGCAUCGUGGACCAGGUCAUGGUCACUCUCAAC | 0.162 ratio |
| AACGUGGAGUUGAGUUCGCUGGCCCGGCUUCCCAGCUUAAAUAAACUCCGGAAGUUGGAACUUAGUGACAAUAUAAUUUCUGGAGGCUUGGAAGUCCUGGCAGAGAAAUGUCCAAAUCUU | 0.208 ratio |
| GCAGGAUCUUCUAAGUACCAGUGGGACAUUAUGAAAUCCCUUGGGCUGUCUGAUGAAGAGAUAGUAAAGUUUUCUGAAGCAGAGCACUGGCUUGAUUAUUUCCCACCACUGGCCGUUCAG | 0.201 ratio |
| GCUCCUCCCCGCUCUGCCCCUGCCUGCCACUGGGCUGGGACCAGAAUCCAGCUUUCUUUUAAAACUCUCAGUGUAACUGUAUCCCGUGACAUUUCAUUUUUUUUAAAAGAAAAAAACUUU | 0.297 ratio |
| UUAAUCCCCUUUACUGCUCCACCACUGCUCAUGGUAAUAACAAAGUCUUAUAUCCCCGUCCUAGCUUUCACUCAGAUGGCUUAUGGAGCCGGUUUCCUAGCUUUCUUGGGUGGGAUCAGA | 0.344 ratio |
| GGAAGUACAAUGAUGGAGAUUGAUGGUGAUAAAGGCAAGCAGGGCGGGCCCACCUACUACAUAGACACCAAUGCCCUCCGCGUGCCCAGGGAGAAUAUGGAGGCCAUCUCACCACUCAAG | 0.257 ratio |
| GCAAAGGAUGAUGAGGCGGCAGCUGUUGCCCUUUCCUCUCUCGUUCAUGCUUUGGAUGACUUAGACAUGGUCGCCAUAGUUCGAUAUGCUUAUGACAAAAGAUCUAAUCCUCAAGUUGGU | 0.576 ratio |
| GCAAAGGAUGAUGAGGCGGCAGCUGUUGCACUUUCCUCUCUCGUUCAUGCUUUGGAUGAGUUAAACAUGGUCGCCAUAGUUCGAUAUGCUUAUGACAAAAGAUCUAAUCCUCAAGUUGGU | 0.178 ratio |
| CUGGCCUGGCCCUCCCCAGGGGCCUCCUUUCGUAUAGUCACUGCUUCUGCAUCAGAUACUUUCAGCUGCAACUCCCUGCAGGGUGGGGCACCCAUUUCAGGCAGAAGGUUUUGGUACCCU | 0.334 ratio |
| ACCUCCCCCUCCCGCCUCACCCCACCCCCGCUUUUUGGAAAGUUUUUGGCUUUUUUUUUUUUUAGAAAUACAAAGUGAUUACAGUUUCCCCCGCAAGGGUCUAUCGAAGGGCUUGACGGA | 1.32 ratio |
